Results collected from several papers.
Numbered parts are unrelated; each lists some results of a single study.

Series 1 — method: protein binding microarray; form: double-stranded DNA, one strand shown; medium: in vitro; tested at: not given; relative to: not given; reading: higher = stronger binding; quantity: E-score
Target: Histone acetyltransferase KAT6A, winged helix 1, GST fusion (KAT6A, Homo sapiens, UniProt Q92794, residues 1-85)
Setting: 8-mer, flanks averaged, mean of 2 arrays, mostly near background
Residues (chain): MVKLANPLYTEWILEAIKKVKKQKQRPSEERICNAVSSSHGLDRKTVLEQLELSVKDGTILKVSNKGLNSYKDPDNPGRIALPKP
AGGGCTAC: -0.0458
ATGAGTCG: -0.104
CGTTGGCC: 0.126
ACGATCAA: -0.257
CATATTTC: -0.211
GATTGGTA: -0.104
AGCCGTAT: 0.322
ACCAAAAC: -0.0344
CTTTCCTC: -0.124
ATAAGGTC: -0.0818
GGCTAACC: 0.104
ACTGGCTC: -0.165
ACATTATG: 0.0118
CGTCGAGA: -0.181
AAAGGTGC: -0.136
CTAGGTTC: -0.109
AGTAAAAC: -0.0985
GCTCCATA: -0.146
ATATCCCG: 0.197
AGCCTTTC: -0.0698
GCCGCCAA: 0.303
AAACCACG: -0.000545
GGATCCCC: 0.161
AGACGGCT: 0.335

Series 2 — method: protein-binding microarray; form: double-stranded DNA, one strand shown; medium: in vitro; tested at: 250 nM; setting: 60-bp whole probe; with: salmon DNA 0.4 mg/ml; relative to: random background probes; reading: higher = stronger binding; quantity: log fluorescence; all sequences stand within: GCCTAGCAC … GTCTTGATTCGCTTGACGCTGCTG
Target: Interferon regulatory factor 5, full length, phosphomimetic (IRF5, Homo sapiens, UniProt Q13568-2, residues 1-514, K96S/S451D/S453D/S456D/S462D)
GCTTCCTCACCTGATGCCTCGTGCTAG: -0.086 z-score
GACGGACTGGATCTCGGGACGTGCTAG: -0.382 z-score
GACGGCTCCCTTTTCCTGACGTGCTAG: -0.104 z-score
TTAGAACGGAGTCTCGATTAGTGCTAG: 0.395 z-score
TTAGGCATCCTACTGCTTTAGTGCTAG: -0.527 z-score
TCACTTCTTTTTTTTCTACTGTGCTAG: 1.5 z-score
CATCGTAAGCAAAAATGATTGTGCTAG: 0.639 z-score
GACGGTATCCTTCCCCTGACGTGCTAG: -0.00666 z-score
CTGGGTATTTTTCTAAACCAGTGCTAG: 0.0927 z-score
TTAGAACTGAGAATCGATTAGTGCTAG: 0.841 z-score
GACGGACTGGGCCTCGGGACGTGCTAG: -0.625 z-score
GACGATCTCAGTTTCTAGACGTGCTAG: 0.688 z-score
GTCGTCACTGCCATAATGCGGTGCTAG: -0.33 z-score
GACGCACTGGGTCTCGGGACGTGCTAG: -0.178 z-score
GACGGCCTCGGTCTCGGGACGTGCTAG: -0.59 z-score
GTAGGACTGCTTCTCCTTTAGTGCTAG: -0.354 z-score
TCAGGACTGGGGTTTCGGTTAGTGCTA: 6.28 z-score
CACGGTTTCGGGTTTCGGGACGTGCTA: 7.46 z-score
GACGGTATCTGGACTGGGGACGTGCTA: -0.0346 z-score

Series 3 — method: universal PBM; form: double-stranded DNA, one strand shown; medium: in vitro; tested at: not given; reading: higher = stronger binding; quantity: E-score
Target: Sal-like protein 4, full length isoform B (SALL4, Homo sapiens, UniProt Q9UJQ4-2, residues 1-616)
Setting: 8-mer, flanks averaged, mean of replicates
GCAGGAAC: -0.138
CGTGCCTA: -0.143
ATGGGGGG: -0.0965
CTCCGTAC: -0.253
GTGAGAAC: -0.108
TGCTGCCA: -0.0904
ATCAGGGC: -0.115
AGCCCGTC: -0.39
CATTTGAC: 0.119
ATTATGGG: 0.297
CGACAGCA: -0.121
AAATATCA: 0.33
CTAATTAG: 0.173
TAGACCTA: 0.119
CTATATGC: 0.286
AGCTACAA: 0.0272
CCGGTCAC: -0.295
GATCAACC: -0.172
CGCAGGTC: -0.301
ATGAATTC: 0.204
AATGGAAC: 0.0445
ACCCCGGA: -0.192
ACGGGACT: -0.131

Series 4 — method: RNA Bind-n-Seq; form: RNA; medium: in vitro; tested at: 365 nM; relative to: no-protein control; reading: higher = stronger binding; quantity: RBNS enrichment (R)
Target: RNA binding protein fox-1 homolog 2, RRM domain, GST-SBP tag (RBFOX2, Homo sapiens, UniProt O43251-10, residues 100-194)
Setting: natural RNA segment, single round, ends assumed
All sequences stand within: GGGAGUUCUACAGUCCGACGAUC … UGGAAUUCUCGGGUGCCAA
Residues (chain): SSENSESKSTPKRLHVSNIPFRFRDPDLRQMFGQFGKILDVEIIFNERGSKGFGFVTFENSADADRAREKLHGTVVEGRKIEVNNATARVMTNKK
UUCCUUUUUCCUUCUAUGUCCCCUCUCUGCGGGGGGGGCGCUGAGGCUGAGGGGGAGCUGCGUCUUGCUAGGGCUUCCCCCUUCUCCCCAUCCCGGUCUCCAGAGACCCA: 2.04
AUAGAAUGUCCCAGUUAAGAUUUUACAGAAGCACCUGGAAUAUCUCAUUAAAAAUUUAAAAACUCUUUUCCUGCUCUCUUUUGCUUCAUUGUUUGAUUUUAUUAACUUUU: 1.08
AGGUCAGCUGCGAGGGUCACAGAGCGUUCCGGGGGCCAAGGCGCCGGGCCCCGGGGCCAUGCUCUUAUCACCAGCCACCCGUCCUCCCGCCAGAGGGUCCCUGCCCCGAG: 0.43
AAAAAAAAUCAAAUGCAGUGACUAUUUUAUAUGGACAUGUGUCUUGAUUAUAUCUAUUAAGUGUGCAUUUAUAGUAUCUCCUAUGGAUCAAUUACAGAGCACAAUGACUG: 0.335
AAAAAGCAUGUUAAGUUGGUAUAAGCAGUGAUUUUAAAUGAUUUUUAAAAAUAAGACGUCCUUCAAAAUGUCUUUUAGUAUCAAUUAAGUUUGUGCAUGAUUGUUUUUAU: 7.03
GGAAGGAGCACCCAUGUCCACUGGAACGGGAGAACAAGCCUUCGGCAUCUACAGGGUUACUGUUUGCAUUUUCUACCCACAAGCAGAAGGAGACAGUGACAAUGGGCAGU: 0.42
UCUUCAGGGCACUGCUGCUGCCUUUAGUCGCUGAGGAAAAAUAAAGACAAAUGCUGCGCCCUUCCCCGAGUGGACUCUGAUCUGUUCAUGAGAGGGCGGGACUGGGGCCA: 0.375
UUCCGAGUGGCAUUUAAGUGCACAAAUGAUAACAAGAGGAUUAUUCUCCCGUUCUCAAGGGAGUCAGAUCAGGGGAACUAUUCUAGGGUAUGUUGCGGGGUAUUAAGCAG: 1.16

Repeated from above (series 4):
UUCCUUUUUCCUUCUAUGUCCCCUCUCUGCGGGGGGGGCGCUGAGGCUGAGGGGGAGCUGCGUCUUGCUAGGGCUUCCCCCUUCUCCCCAUCCCGGUCUCCAGAGACCCA: 2.04
AUAGAAUGUCCCAGUUAAGAUUUUACAGAAGCACCUGGAAUAUCUCAUUAAAAAUUUAAAAACUCUUUUCCUGCUCUCUUUUGCUUCAUUGUUUGAUUUUAUUAACUUUU: 1.08
AGGUCAGCUGCGAGGGUCACAGAGCGUUCCGGGGGCCAAGGCGCCGGGCCCCGGGGCCAUGCUCUUAUCACCAGCCACCCGUCCUCCCGCCAGAGGGUCCCUGCCCCGAG: 0.43
AAAAAAAAUCAAAUGCAGUGACUAUUUUAUAUGGACAUGUGUCUUGAUUAUAUCUAUUAAGUGUGCAUUUAUAGUAUCUCCUAUGGAUCAAUUACAGAGCACAAUGACUG: 0.335
AAAAAGCAUGUUAAGUUGGUAUAAGCAGUGAUUUUAAAUGAUUUUUAAAAAUAAGACGUCCUUCAAAAUGUCUUUUAGUAUCAAUUAAGUUUGUGCAUGAUUGUUUUUAU: 7.03
GGAAGGAGCACCCAUGUCCACUGGAACGGGAGAACAAGCCUUCGGCAUCUACAGGGUUACUGUUUGCAUUUUCUACCCACAAGCAGAAGGAGACAGUGACAAUGGGCAGU: 0.42
UCUUCAGGGCACUGCUGCUGCCUUUAGUCGCUGAGGAAAAAUAAAGACAAAUGCUGCGCCCUUCCCCGAGUGGACUCUGAUCUGUUCAUGAGAGGGCGGGACUGGGGCCA: 0.375
UUCCGAGUGGCAUUUAAGUGCACAAAUGAUAACAAGAGGAUUAUUCUCCCGUUCUCAAGGGAGUCAGAUCAGGGGAACUAUUCUAGGGUAUGUUGCGGGGUAUUAAGCAG: 1.16
